Published values pooled from the literature.
Each line is one published result; not all experiments were run side by side. Numbers after ± are the reported error.

`C=CC[C@@H]1/C=C(\C)C[C@H](C)C[C@H](OC)[C@H]2O[C@@](O)(C(=O)C(=O)N3CCCC[C@H]3C(=O)O[C@H](/C(C)=C/[C@@H]3CC[C@@H](O)[C@H](OC)C3)[C@H](C)[C@@H](O)CC1=O)[C@H](C)C[C@@H]2OC` gave a dose-normalized AUC(0-12h) of 94 ng·h/mL (kidney transplant recipients, CYP3A5 *1/*1 and *1/*3, whole blood; oral, dose not given, early and late phases, limited sampling).
Under “body weight decrease”, `CC(C)(C)NCC(SS(=O)(=O)O)c1ccccc1` (stereo not drawn) is recorded as -8% (Swiss Webster mice, Schistosoma mansoni-infected; 200 mg/kg single dose on day 42 post-infection, perfusion day 56 post-infection; relative to: vehicle).
With `O=C(Nc1cnccc1-c1ccc([18F])cc1)c1ccnc(NC(=O)C2CC2)c1` the SUV was 0.88 (FVB/NJ mice, both sexes, brain; intravenous, 5 min, median, no P-gp inhibitor).
For `C=CC(=O)Nc1cccc(Cn2ncc3cnc(Nc4cnn(CCOC)c4)nc32)c1`, “percent of control” read 100% (STK33 human; binding, KINOMEscan; 100 nM; lower = stronger binding).
`C=C(NC(=O)c1csc(-c2nc3c(cc2O)-c2nc(cs2)C(=O)NC(C(C)O)C(=O)NC(=C(C)OC)c2nc(cs2)C(=O)NC2c4nc(cs4)C(=O)NC(COC(=O)c4c5c6c(cccc6n4O)COC(=O)C(OC4CC(C)(O)C(N(C)C)C(C)O4)C2OC5)c2nc-3cs2)n1)C(N)=O` (stereo not drawn) gave a clearance of 2.62 mL/min/kg (cynomolgus monkey, plasma; intravenous, infusion).
Under “log2 fold change”, `Cc1ncsc1-c1ccc(C(C)NC(=O)C2CC(O)CN2C(=O)C(NC(=O)CCCCCCCCCCN2CCCC(Nc3ncc(Cl)c(Nc4ccccc4S(=O)(=O)C(C)C)n3)C2)C(C)(C)C)cc1` (stereo not drawn) is recorded as -1.53 (22Rv1; RNA-seq, refers to: ZFP69B mRNA; concentration not given; relative to: DMSO).
For `O=C1NC2(CC2)COc2ncc(F)cc2[C@H]2COCCN2c2ccn3ncc1c3n2`, “structural aberrations with gaps” read 0.7% (CHL; 150 µg/mL, 4 h, with rat liver S9).
`Cc1nc(N)nc2c1C(=O)N[C@@H](c1ccc(F)cc1-c1cccc(OCC[18F])n1)C2`: “radioactivity in blood cells” 40 ± 1% (Wistar rats, blood; intravenous, dose not given, 35 min).
With `CN1CCCC1C(=O)NC(Cc1ccc(-n2cccn2)cc1)B(O)O` (stereo not drawn) the Papp A→B was 0.54 ×10⁻⁶ cm/s (Caco-2).
`COc1cccc(OC)c1-c1cc(C(=O)NC2(C(=O)O)C3CC4CC(C3)CC2C4)nn1-c1ccc(C(=O)N(C)CCOCCOCCN(C)C(=O)[C@H](CCCCNC(=O)[C@H](CC(C)C)NC(=O)C2OC2C(=O)O)NC(=O)CN2CCN(CC(=O)[O-])CCN(CC(=O)[O-])CCN(CC(=O)[O-])CC2)cc1C(C)C.[177Lu+3]` (mixture of isomers) gave a tissue uptake of 0.34 %ID/g (mouse, HT-29 xenograft, spleen; 72 h post injection).
`CN1CCCNC(=O)c2cccc(c2)C(=O)NCCCN(C)CCCNc2cccc3c2C(=O)c2cccc(c2C3=O)NCCC1` — result for “log2 fold change”: 0.916 (SAS; RNA-Seq, refers to: SMYD4 mRNA; 1 µM, 6 h; relative to: untreated cells).
For `C=CC(=O)Nc1cc(Nc2nccc(-c3cn(C)c4ccccc34)n2)c(OC)cc1N(C)CCNC`, the recovery was 85.2% (storage stability; human plasma; 24 h, on ice, LLOQ level).
The IC50 of `CNS(=O)(=O)Nc1nccc(Cc2c(C)c3ccc(Oc4ncccc4F)cc3oc2=O)c1F` is reported as > 1000 nM (RS4-11; cell viability, inhibitor, CellTiter-Glo; 7 days).
With `CCCCC/C=C\CCCO[Si](CCCCCN(C)C)(OCCC/C=C\CCCCC)OCCC/C=C\CCCCC` the zeta potential was 2.87 mV (pH 5.5, formulated).
`CCn1nc(Cl)c2c1-c1cnc(N)c(c1)O[C@H](C)c1cc(F)ccc1-c1nn(C)cc1C2`: “free plasma concentration” 0.33 nM (Balb/c nude mouse female, plasma; 0.06 mg/kg single dose, 1 h).
With `CC(C)(C)C(=O)Nc1ccc2[nH]c(CN3CCC(N(CCCN4CCOCC4)CC4OC(n5cnc6c(N)ncnc65)C(O)C4O)CC3)nc2c1` (stereo not drawn) the concentration was 1560 ng/mL (male Sprague-Dawley rat, plasma; intraperitoneal, 20 mg/kg, 30 min).
The tissue uptake of `[123I]c1ccc2nc(-c3ccc(-n4ccnn4)nc3)cn2c1` is reported as 0.207 ± 0.017 %ID/g (Wistar rat, male, adrenals; intravenous, 4 MBq, 6 h).
For `COC1CN([C@H]2CC[C@H]([C@@]3(C)Oc4c(Cl)cc(C(=O)NCc5c(SC)cc(C)[nH]c5=O)c(C)c4O3)CC2)C1`, “log2 fold change” read 2.93 (RNA-seq, refers to: CAMSAP3 mouse homolog; mouse, HT-1376 xenograft, whole blood; dose not given; relative to: vehicle).

For quick reference, copied from above:
For `COC1CN([C@H]2CC[C@H]([C@@]3(C)Oc4c(Cl)cc(C(=O)NCc5c(SC)cc(C)[nH]c5=O)c(C)c4O3)CC2)C1`, “log2 fold change” read 2.93 (RNA-seq, refers to: CAMSAP3 mouse homolog; mouse, HT-1376 xenograft, whole blood; dose not given; relative to: vehicle).
With `O=C(Nc1cnccc1-c1ccc([18F])cc1)c1ccnc(NC(=O)C2CC2)c1` the SUV was 0.88 (FVB/NJ mice, both sexes, brain; intravenous, 5 min, median, no P-gp inhibitor).
With `CC(C)(C)C(=O)Nc1ccc2[nH]c(CN3CCC(N(CCCN4CCOCC4)CC4OC(n5cnc6c(N)ncnc65)C(O)C4O)CC3)nc2c1` (stereo not drawn) the concentration was 1560 ng/mL (male Sprague-Dawley rat, plasma; intraperitoneal, 20 mg/kg, 30 min).
